# Experimental data gathered from unrelated publications.
# Every numbered part comes from another study and shows a few of its results, in no order. Positions count from the first letter of the parent shown.

# Sample 1 — target: CCNA1, cyclin fold, Cln2 fusion (human); method: yeast growth competition, sequencing; medium: yeast; notes: weak parent motif; baseline: not given; direction: higher = stronger binding
# Starting sequence: CDC42EP1 docking peptide (human); SLVVGKLSFDSSP; partner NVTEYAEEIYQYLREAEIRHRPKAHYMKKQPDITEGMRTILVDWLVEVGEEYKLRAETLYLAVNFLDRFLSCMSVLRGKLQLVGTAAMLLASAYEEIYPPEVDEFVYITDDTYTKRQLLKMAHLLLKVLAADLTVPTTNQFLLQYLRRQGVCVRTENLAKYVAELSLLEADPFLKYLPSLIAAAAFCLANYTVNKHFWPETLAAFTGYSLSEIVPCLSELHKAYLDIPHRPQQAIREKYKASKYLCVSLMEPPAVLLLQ
Variant,normalised enrichment score
L2A,-0.348
L7A,-0.33
K6A,-0.353
V4A,-0.213
F9A,-0.344
S11A,-0.726

# Sample 2 — method: RNA Bind-n-Seq; molecule type: RNA; medium: in vitro; tested at: not given; notes: RNA with constant flanks, ends assumed; baseline: input RNA pool; direction: higher = stronger binding
# Target: RING finger protein unkempt homolog, zinc fingers 1-6, GST-SBP tag (UNK, Homo sapiens, UniProt Q9C0B0, residues 30-357)
# Chain of UniProt Q9C0B0 (30-357, looked up): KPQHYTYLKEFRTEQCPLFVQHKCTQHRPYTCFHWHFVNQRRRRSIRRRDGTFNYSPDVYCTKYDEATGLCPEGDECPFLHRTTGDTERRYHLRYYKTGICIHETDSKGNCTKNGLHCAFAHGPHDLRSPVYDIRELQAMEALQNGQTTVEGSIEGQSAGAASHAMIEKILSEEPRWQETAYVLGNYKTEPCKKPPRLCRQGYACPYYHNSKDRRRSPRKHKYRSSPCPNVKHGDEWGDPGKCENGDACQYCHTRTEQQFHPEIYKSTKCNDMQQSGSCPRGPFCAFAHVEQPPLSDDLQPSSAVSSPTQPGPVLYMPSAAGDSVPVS
# Shared flanks, not repeated: GGGAGUUCUACAGUCCGACGAUC … CAACAGAGGAUUGAGCAUCA
Strand,bound/input enrichment [ratio]
ACUAACAGGCCAUUUAUUUCUCAGAAAAUCCAUUUUCCUGAUUUUUCUACCAGAGACAUACACCGGAAUUAUGUUGAUUGUGUGCGAUGGUUAGGCGAUUUGAUACUUUCUAAGAGUGGC,0.218
GAGUAAGCAUGCUGUACAUUGUUUUGUGUUUAGUUUUACACCAAACUGUAUUACAGUACUCUCCGUAUUCACCAGCAUACUCACUAUCUGCCUAAGAUAUGCAGCCUUUGUGUUACAAUA,0.202
ACCCUGGAAGAAGAAACAGUGAUGCUUGCAAUGACUCCAGAUGAUUUACAGGAGAAAGAAGCCGCUUAUUGUUCCACAUAUACACACUGUGAGAUUCAUCCCUCAAUGAUCCUUGGUGUC,0.297
AUAGCUUUCCAAAAGAAGCUCUUUCAGACCCUGAGGAGACACCCUUCCUAUCCCAAAAUAACCGAAGAAUUUGUUAGUGGCCUGGAGUCUUACAUUGAGGAUGAAGACAGUUUCAGGAAC,0.222
GAGUUCCCAGAGAAUGUACUUUUGCUUUGUCAUACUUAUCCUUGUUAUAUUUAAACAAUCCCGUACCCAAAAAAUGUGGGCCGUACUUUCUAGUGAGUCUAAGGAAAAGUCAUCUUUGAU,0.399
AUCUCCCGGUCCCCCGCCCGCGGCAGACAUGGCGGUGGACUCGUCUAUGGAGCUGCUAUUUUCCGAUACUUUUAAACAUCCGAGCGCUGAGCAAAGUUCUCAUAUAGAUGUGGUUCGUUU,0.277

# Sample 3 — method: DHFR PCA, deep sequencing; medium: yeast; with: (+)-ABA 0.11 µM; baseline: wild-type fitted maximum; direction: higher = stronger binding
# Target: ABI1, truncated, D143A, DHFR fusion (Arabidopsis thaliana)
# Notes: methotrexate growth selection, single substitutions
# Starting sequence: PYL1, truncated, DHFR fusion (Arabidopsis thaliana); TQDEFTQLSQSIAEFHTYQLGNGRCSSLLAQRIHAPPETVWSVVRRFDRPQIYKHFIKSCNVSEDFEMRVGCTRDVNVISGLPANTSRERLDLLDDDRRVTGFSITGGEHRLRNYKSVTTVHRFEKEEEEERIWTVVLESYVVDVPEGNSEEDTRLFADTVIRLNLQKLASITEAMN
Variant,relative binding score
L29A,0.0642%
S9L,32.2%
T39Y,7.21%
T101W,1.44%
N85Y,64%
Q19F,-0.798%
T160G,-1.04%
I105F,0.853%
V142L,-1.45%
R46L,-1.49%
C72K,6.79%
R69S,19.5%
V143H,-0.923%
V100D,-11.6%
P37R,-2.45%
D159S,0.644%
D153T,-7.07%
L169M,-2.31%
E147P,35.4%
R32D,1.13%

# Sample 4 — method: RNA Bind-n-Seq; molecule type: RNA; medium: in vitro; tested at: 365 nM; baseline: no-protein control; direction: higher = stronger binding
# Target: RNA binding protein fox-1 homolog 2, RRM domain, GST-SBP tag (RBFOX2, Homo sapiens, UniProt O43251-10, residues 100-194)
# Notes: natural RNA segment, single round, ends assumed
# Shared flanks, not repeated: GGGAGUUCUACAGUCCGACGAUC … UGGAAUUCUCGGGUGCCAA
# Residues (chain): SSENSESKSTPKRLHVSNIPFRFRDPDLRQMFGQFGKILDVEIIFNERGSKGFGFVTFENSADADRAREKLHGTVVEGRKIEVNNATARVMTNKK
Strand,RBNS enrichment (R)
CAACAUAUAGAAAAAUGUAUAGAUGCUUGGACAGACCCGGUAAUGGGUGGCCAUUGGUAAAUGUUAGGAACACACCAGGUCACCUGACAUCCCAAGAAUGCUCACAAACC,0.378
UUUCUCAACCUCAUUUGAACUAAAAAACAAGACCAUGAACAUUAAAAGAUUGCAUUUACCUUUUCAGUGGUAGAAAAUCAUUUAGUUCUUUGCUAUAAAUGAUUCAGAAU,1.17
ACCCAAGUCUUAGUUGCUACAAGAAAAUCCCCUGGAAGUACUGGGGGCCAGGUUCCCCAGACAGCAGGAAUUGCCCCUGUUCAGAGCAGCCGGAGUUUGCUGGACCACAA,0.379
AUUUGUAACUGGCAGACUCUGGUUCCAUUGUAUUUGUUUCAAAAUGUGUUUUUGUUUGUUUGUUUGUUUCAGGAGCAAUCGGUUACAUGGGAACAAGUGCCUUUGUUCGA,2.26
AAAUGGGAGGGGUUGUCCCUCCCCAUCAUCCAUUCCUGUGAGGUGUCUCAAACCAAAGUUAACAGGGAGAGGAUGGGGGAGGGGACAAAUUAGAAUAGGAUAGCAUCUGA,1.36
UUUUCUACAGAAGUCCAGCCCAGAGUCCCCACUUUGCUAGUGCUGCCUGGCUGCCACCGCCUAACGCUCUGAACCACCACCCCAGGUUUAUGUAUAUAUAAAUACUUUAU,0.632
GGGCGGCUGAGAGGCCGCCACUGAGCAUCUCUAUCUGUCAUUCCUUUAGCUAUUUAGGGACCAAAGGACCAAACUUUUUAUUGCAGAUGUGUAGCUCUAUGUCAAAUAGA,0.294
CGUUCCCAAACUCCCCCAGCCCUGGACCCCAGCAGAUGAGGAAACGGCCCCAUUUACUGACCCCGCCCCCUUUUCGAGGUUAUGCUCACCUGGUCAGCUCCUCACGUAAU,0.397

# Single results of other studies
Substance,target,test,test system,setting,how to read,endpoint,result
"PhoQ, residues 284 288 289 292 302 303 SIHLQL","PhoP, residues 12 14 15 18 19 NQFFI (Escherichia coli, UniProt P23836)","Sort-seq, item: YFP reporter",E. coli,"PhoQ-PhoP variant library, with: 10 µM Mg2+","baseline: high Mg2+ state, higher = stronger signaling",fold induction,15.6

# Excerpt of the above (single results of other studies):
Substance,target,test,test system,setting,how to read,endpoint,result
"PhoQ, residues 284 288 289 292 302 303 SIHLQL","PhoP, residues 12 14 15 18 19 NQFFI (Escherichia coli, UniProt P23836)","Sort-seq, item: YFP reporter",E. coli,"PhoQ-PhoP variant library, with: 10 µM Mg2+","baseline: high Mg2+ state, higher = stronger signaling",fold induction,15.6
